Assay results from different studies.
A part holds a random share of what one study measured.

Series 1
Target: Phosphate system positive regulatory protein PHO4, full length, GST-tagged (PHO4, Saccharomyces cerevisiae, UniProt P07270, residues 1-312)
Method: competition protein-binding microarray
Molecule type: double-stranded DNA, one strand shown
Sample: in vitro
Tested at: 2 µM
Setting: whole 60-bp probe, lowest competitor level
Added: Cbf1 competitor, 0.05 µM
Direction: higher = stronger binding
Shared flanks, not repeated: … GTCTTGATTCGCTTGACGCTGCTG
Construct (chain): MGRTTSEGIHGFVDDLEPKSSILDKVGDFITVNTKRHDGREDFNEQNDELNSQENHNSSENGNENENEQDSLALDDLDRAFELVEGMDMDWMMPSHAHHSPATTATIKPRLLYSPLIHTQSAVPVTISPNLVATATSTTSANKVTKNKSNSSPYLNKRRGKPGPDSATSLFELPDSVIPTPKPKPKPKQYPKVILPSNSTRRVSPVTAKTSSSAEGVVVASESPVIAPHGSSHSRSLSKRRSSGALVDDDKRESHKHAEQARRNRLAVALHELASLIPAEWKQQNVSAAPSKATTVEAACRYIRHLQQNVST
Sequence | fluorescence intensity
GCCCCAAAATACTGTCACAGTAAAGACCATGCTTGT | 4430 a.u.
TATAGTCAGCCTCAACATGTGGCTATGATGACCAGC | 8920 a.u.
CTTTCCCGATCTTGTCACAGTACTTTAGCACATTTG | 4160 a.u.
CCGTCGAAACAATGGCAGGTGAAGCAGTTTCGGAAT | 3810 a.u.
CTTTCCCGATCTTGTTTGGTGGGTGTAGCACATTTG | 4630 a.u.
AAATTACTAAGTTGAAAAGTGGGTGACGCCGTATGA | 3490 a.u.
ATATATATATGCGGCTGCGTGCGGATATTCTCCCGG | 5440 a.u.
TTAACGGTTCTCTAGCTCGTGCTTTTAAAGTTAAGT | 11000 a.u.

Series 2
Target: RNA binding protein fox-1 homolog 2, RRM domain, GST-SBP tag (RBFOX2, Homo sapiens, UniProt O43251-10, residues 100-194)
Method: RNA Bind-n-Seq
Molecule type: RNA
Sample: in vitro
Tested at: 365 nM
Setting: natural RNA segment, single round, ends assumed
Relative to: no-protein control
Direction: higher = stronger binding
Shared flanks, not repeated: GGGAGUUCUACAGUCCGACGAUC … UGGAAUUCUCGGGUGCCAA
Construct (chain): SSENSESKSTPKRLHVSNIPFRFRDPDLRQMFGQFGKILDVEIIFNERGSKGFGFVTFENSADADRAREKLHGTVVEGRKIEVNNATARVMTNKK
Sequence | RBNS enrichment (R)
UAUGUUCCCACUCCUCCUGUGUUAAUAACAUUGCUUUCAUCUUGGAUAUUUUUUUUCUACUUUGUUAACCUACUUUAUGCUUUAUCUCAAUAAAAUGCUUACCAAGGGAA | 0.79
UCUGUUAAAUCCUGCCCUCCUUGGUGCUAGAUCCAGUUGUGCCUCAGGGCAGAGGAAACAAAACACAGCUAUCCUGUUGGCCUGUGUUGUGGUUUUGAAGUUUGUACUUU | 0.398
CCUUUAGUUCGGGGUUAGCUCCCAGAACUGCCCUGCACCAUAAGCUGGUGAUUCUCCAUGCCUGUCCUUACCCCGGAUCUGGCUAUUCCCGUGAUGCCAUUUGGAGGGGA | 1.36
UGCCUUUAUUUUAAAUACUGCAAUUUUACUUCUUCAUUCAUGUAUUUAUUAUUUUGCUUUUCUUGCUUAAGUAUAAUUGAAAAUAUUUGCAGGAACGCACAAUUCAUUUU | 1.23
CAUGUCUAGCCUUUAGAGUGGCCAAUCAUGUUUUACUUUCAUUUAAGCACUGGUAGUCUGGAGUACCUGGUACUGAGUAACUCUAUAAUUGUGUUUUGUGUUCACCAUAU | 0.676
UCAGGACCCCGCCUCUGUCCUCACUGUGCCAGGCCAUAGCCAGAGGCCACCCUGUAGUACAGGGAUGAGUCUUGGUGUGUUCUGCAGGGACAGGCCUGGAUGAUCUAGCU | 0.274
UGACGUAGUGCUCUCAUGGGCUCACCUGGGCCCAAGGCACAGCCAGGGCACAGUUAGGCCUGGAUGUUUGCCUGGUCCGUGAGAUGCCGCGGGUCCUGUUUCCUUACUGG | 0.696
AUCCGUCUCCUCACGGUGCAAUCAGGCAGGACAGGAGGAGGUGCAGGGCUACCACAUUGACCCAGAUGGUAUCUCCUCUCACCAUUCAGACAUCCAUAAGGAAUGCCAAA | 0.272

Series 3
Target: Replicase polyprotein 1ab, nsp13 helicase (rep, Severe acute respiratory syndrome coronavirus 2, UniProt P0DTD1)
Action: inhibitor
Tested at: 20 µM
Compound | inhibition [%]
COc1ccn2ncc(-c3nc4[nH]nc(NC(=O)c5ccc(F)cc5)c4cc3F)c2c1 | 4.36
CC(=O)N[C@@H](CC(C)C)C(=O)O | 3.02
CCS(=O)(=O)N1CCC([C@@H](C)n2c(C)c(C(=O)NCc3c(OC)cc(C)[nH]c3=O)c3ccccc32)CC1 | -1.63
CN1CCc2nc(C(=O)N[C@@H]3C[C@@H](C(=O)N(C)C)CC[C@@H]3NC(=O)C(=O)Nc3ccc(Cl)cn3)sc2C1 | 4.08
C=CC(=O)Nc1cccc(Nc2nc(Nc3ccc(OCCOC)cc3)ncc2F)c1 | 10.7
c1ccc(-c2ncc(CN3CCN(c4ncccn4)CC3)[nH]2)cc1 | 8.82
O=C1S/C(=C\c2ccc(OCc3cccc(B(O)O)c3)cc2)C(=O)N1Cc1ccc(F)cc1 | 3.95
C=C[C@H]1CN2CC[C@H]1C[C@H]2[C@H](OC(=O)OCC)c1ccnc2ccc(OC)cc12 | 0.06
CCc1cc(C(C)=O)c(O)cc1OCCCCCC(C)(C)c1nn[nH]n1 | 7.19
Nc1nc(Nc2ccc(S(N)(=O)=O)cc2)nn1C(=O)c1c(F)cccc1F | -3.06
C=CCOc1ccc(CC(=O)O)cc1Cl | 5.36
Cc1ccc(-c2ccc(F)cc2COc2ccc(CCC(=O)O)cc2)cc1 | 5.11
CCOC(=O)c1cnc2c(cnn2CC)c1NN=C(C)C | 5.37
CN(Cc1ccccc1)C(=O)[C@H](Cc1ccc2ccccc2c1)NC(=O)[C@@H]1CCCN1C(=O)Nc1ccccc1[N+](=O)[O-] | 4.41
c1ccc2c(c1)Sc1ccccc1N2C[C@@H]1CN2CCC1CC2 | 5.21
Clc1cc(Cl)c(OCC#CI)cc1Cl | 21.6
Ic1cncc(OC[C@@H]2CCN2)c1 | 11.5
COc1ccc2cc([C@H](C)C(=O)O)ccc2c1 | 2.86
Nc1ccn([C@@H]2O[C@H](CO)[C@@H](O)[C@@H]2O)c(=O)n1 | -3.02
O=c1cc[nH]c(=O)[nH]1 | 3.7
COC(=O)CC1CC(c2ccc(O)cc2)=NO1 (stereo not drawn) | 13.8
CC(=O)OCC1=C(C(=O)O)N2C(=O)[C@@H](NC(=O)CSc3ccncc3)[C@H]2SC1 | 12.1
CC(=O)N1CCC[C@H]1C(=O)N[C@@H](Cc1cnc[nH]1)C(=O)N[C@@H](CO)C(=O)N[C@@H](CS)C(=O)N[C@@H](CC(N)=O)C(N)=O | 2.14
COc1cc(OC)c(C=C2C(=O)Nc3ccccc32)c(OC)c1 | 4.69
Cc1nc2ccccc2c(-c2ccc3c4c(ccnc24)CCO3)c1[C@H](OC(C)(C)C)C(=O)O | -0.96

Series 4
Cell line: HEK-293T
Read-out: pseudovirus infection
Method: FDA-approved drug library screen
Organism: VSV pseudotyped with SARS-CoV-2 spike
Tested at: 10 µM
Time: 16 h
Relative to: vehicle-treated
SMILES | GFP-positive cells [%]
O=C1CN2Cc3c(ccc(Cl)c3Cl)N=C2N1 | 87.1
Cc1ccnc(NS(=O)(=O)c2ccc(N)cc2)n1 | 87.2
CC(C)N(CCC(C(N)=O)(c1ccccc1)c1ccccn1)C(C)C (stereo not drawn) | 92.1
CC(C)C[C@H](CN)CC(=O)O | 99.9

Series 5
Target: Sal-like protein 4, full length isoform B (SALL4, Homo sapiens, UniProt Q9UJQ4-2, residues 1-616)
Method: universal PBM
Molecule type: double-stranded DNA, one strand shown
Sample: in vitro
Tested at: not given
Setting: 8-mer, flanks averaged, mean of replicates
Direction: higher = stronger binding
Sequence | E-score
CGATTGTA | 0.175
ATAAGAGA | 0.257
GCATGAGC | -0.12
GTAGCCGA | -0.17
CAGGAACA | 0.0883
GCTTCTGA | -0.0341
TACGCTGA | 0.0297
CTTCAAAC | -0.107

Series 6
Organism: SARS-CoV-2
Read-out: cytopathic effect
Cell line: Vero E6
Tested at: 10 µM
SMILES | inhibition
O=[N+]([O-])C(Br)(CO)CO | 17.6%
C=C1C(=O)O[C@H]2[C@H]1CC/C(C)=C/CC[C@@]1(C)O[C@@H]21 | -43.2%
CCC(C)SSc1ncc[nH]1 (stereo not drawn) | -0.7%
O=C1C2CC=CCC2C(=O)N1SC(Cl)(Cl)Cl (stereo not drawn) | -25.1%

Excerpt of the above (series 3):
Compound | inhibition [%]
Cc1ccc(-c2ccc(F)cc2COc2ccc(CCC(=O)O)cc2)cc1 | 5.11
CCS(=O)(=O)N1CCC([C@@H](C)n2c(C)c(C(=O)NCc3c(OC)cc(C)[nH]c3=O)c3ccccc32)CC1 | -1.63
COc1ccn2ncc(-c3nc4[nH]nc(NC(=O)c5ccc(F)cc5)c4cc3F)c2c1 | 4.36
